Results from different studies.
Protocols differ between the studies behind these lines. ± gives the spread as reported.

SMILES | test | test system | setting | how to read | measurement | value
N[C@]1(c2ccccc2Cl)C[C@@H](O)CCC1=O | – | male CD-1 mice, plasma | intraperitoneal, 5 mg/kg | – | dose-normalized Cmax | 184 ± 1.8 ng/mL per mg/kg
Cc1ncc2n1-c1ccc(Cl)cc1C(c1ccccc1F)=NC2 | – | human CYP3A5*1/*3 and *1/*6, serum | geometric mean, together with: ketoconazole 200 mg | – | terminal half-life | 5.69 h
CN1CC[C@@]23CCCC[C@@H]2[C@@H]1Cc1ccc(O)cc13 | – | Wistar rat, both sexes, plasma | oral, 5 mg/kg DEM, DEM 2 h after pretreatment, together with: TCE 400 mg/kg single pretreatment | – | AUC(0-inf) | 60.2 ± 26.8 ng·h/mL
CNC(C)Cc1ccc2c(c1)OCO2 (racemic) | – | human | oral, 1.5 mg/kg, mean over session, unit not given | reference: pre-dose baseline | change in systolic blood pressure | 27.1
N[C@]1(c2ccccc2Cl)CCC[C@H](O)C1=O | – | female CD-1 mice, plasma | intraperitoneal, 5 mg/kg | – | dose-normalized Cmax | 760 ± 17 ng/mL per mg/kg
COc1ccc2c(c1)[C@]13CCCC[C@@H]1[C@H](C2)N(C)CC3 | – | Wistar rat, both sexes, plasma | oral, 5 mg/kg, 2 h after pretreatment, together with: single TCE 400 mg/kg | – | CL/F | 500 ± 167 mL/min/kg
C[C@H]1CNCCc2ccc(Cl)cc21 | – | male Sprague-Dawley rat, plasma | subcutaneous, 1 mg/kg, 0 h, given alone | – | plasma concentration | 0 ng/mL
N[C@@]1(c2ccccc2Cl)CC[C@H](O)CC1=O | – | male CD-1 mice, plasma | intraperitoneal, 5 mg/kg | – | dose-normalized Cmax | 180 ± 10.6 ng/mL per mg/kg
C=C1C[C@@H]2[C@H](CC[C@]3(C)C(=O)CC[C@@H]23)[C@@]2(C)C=CC(=O)C=C12 | LC-MS/MS | postmenopausal breast cancer women, plasma | oral, 25 mg/day, 2 h, CYP3A4*22 carriers, White only | – | median plasma concentration | 13.5 ng/mL

Some of these lines once more:
SMILES | test | test system | setting | how to read | measurement | value
C=C1C[C@@H]2[C@H](CC[C@]3(C)C(=O)CC[C@@H]23)[C@@]2(C)C=CC(=O)C=C12 | LC-MS/MS | postmenopausal breast cancer women, plasma | oral, 25 mg/day, 2 h, CYP3A4*22 carriers, White only | – | median plasma concentration | 13.5 ng/mL
